# Measurements gathered from unrelated publications.
# Each line is one published result; not all experiments were run side by side.
# Organism: Acinetobacter baumannii
Compound,test,test system,setting,MIC
CCCCCCCC(=O)N[C@@H](CCN)C(=O)N[C@H](C(=O)N[C@@H](CCN)C(=O)N[C@H]1CCNC(=O)[C@H]([C@@H](C)O)NC(=O)[C@H](CCN)NC(=O)[C@H](CCN)NC(=O)[C@H](Cc2ccccc2)NC(=O)[C@@H](CCC(C)C)NC(=O)[C@H](CCN)NC1=O)[C@@H](C)O,broth microdilution,colistin-resistant isolates,,1 to 2 mg/L
CC[C@H](C)[C@H](NC(=O)[C@@H](CCCNC(=N)N)NC(=O)[C@H](CCCNC(=N)N)NC(=O)[C@H](C)NC(=O)[C@H](Cc1c[nH]c2ccccc12)NC(=O)[C@H](CCCNC(=N)N)NC(=O)[C@@H]1CCCN1C(=O)[C@H](CCCNC(=N)N)NC(=O)[C@@H]1CCCN1C(=O)[C@H](CC(C)C)NC(=O)[C@H](Cc1ccc(O)cc1)NC(=O)[C@@H]1CCCN1C(=O)[C@@H]1CCCN1C(=O)[C@H](CCCCN)NC(=O)[C@H](CC(=O)O)NC(=O)[C@@H](N)C(C)C)C(=O)N[C@@H](Cc1ccc(O)cc1)C(=O)N[C@@H](CC(N)=O)C(=O)N[C@H](CCCNC(=N)N)C(N)=O,broth microdilution,DSM 30008,"18 h, 37 °C, 25% MHB2",32 mg/L
CCCCCCCC(=O)N[C@@H](CCN)C(=O)N[C@H](C(=O)N[C@@H](CCN)C(=O)N[C@H]1CCNC(=O)[C@H]([C@@H](C)O)NC(=O)[C@H](CCN)NC(=O)[C@H](CCN)NC(=O)[C@H](CCC(C)C)NC(=O)[C@@H](Cc2ccccc2)NC(=O)[C@H](CCN)NC1=O)[C@@H](C)O,broth microdilution,"ATCC 19606, colistin-susceptible",,< 0.125 mg/L
CC[C@H](C)[C@H](NC(=O)[C@@H](CCCNC(=N)N)NC(=O)[C@H](CCCNC(=N)N)NC(=O)[C@@H]1CCCN1C(=O)[C@@H]1CCCN1C(=O)[C@H](CCCNC(=N)N)NC(=O)[C@@H]1CCCN1C(=O)[C@H](CCCNC(=N)N)NC(=O)[C@@H]1CCCN1C(=O)[C@H](CC(C)C)NC(=O)[C@H](Cc1cc(I)c(O)c(I)c1)NC(=O)[C@@H]1CCCN1C(=O)[C@@H]1CCCN1C(=O)[C@H](CCCCN)NC(=O)[C@H](CC(=O)O)NC(=O)[C@@H](N)C(C)C)C(=O)N[C@@H](Cc1ccc(O)cc1)C(=O)N[C@@H](CC(N)=O)C(=O)N[C@H](CCCNC(=N)N)C(N)=O,broth microdilution,DSM 30008,"18 h, 37 °C, 25% MHB2",128 mg/L
CCCCCCCC(=O)N[C@@H](CCN)C(=O)N[C@@H](C)C(=O)N[C@@H](CCN)C(=O)N[C@H]1CCNC(=O)[C@H]([C@@H](C)O)NC(=O)[C@H](CCN)NC(=O)[C@H](CCN)NC(=O)[C@H](CC(C)C)NC(=O)[C@@H](Cc2ccccc2)NC(=O)[C@H](CCN)NC1=O,broth microdilution,ATCC 19606,"20 h, 37 °C",> 512 mg/L
CC1(C)[C@H](NC(=O)/C(=N\OCc2cc(=O)c(O)cn2O)c2csc(N)n2)C(=O)N1OS(=O)(=O)O,agar dilution,ATCC 19606,,0.5 mg/L
N=C(N)NCCC[C@@H]1NC(=O)[C@H](CCCNC(=N)N)NC(=O)[C@H](CCCNC(=N)N)NC(=O)[C@@H](CCCNC(=N)N)NC(=O)[C@H](Cc2ccc3ccccc3c2)NC(=O)[C@H](Cc2ccc3ccccc3c2)NC(=O)[C@H](Cc2ccc3ccccc3c2)NC1=O,,"NCTC 13304, carbapenem-resistant",,16 mg/L
CN[C@H](CC(C)C)C(=O)N[C@H]1C(=O)N[C@@H](CC(N)=O)C(=O)N[C@H]2C(=O)N[C@H]3C(=O)N[C@H](C(=O)N[C@H](C(=O)O)c4cc(O)cc(O)c4-c4cc3ccc4O)[C@H](O)c3ccc(c(Cl)c3)Oc3cc2cc(c3O[C@@H]2O[C@H](CO)[C@@H](O)[C@H](O)[C@H]2O[C@H]2C[C@](C)(NCc3ccc(OCc4cn(CCCCC(=O)N[C@H](C(=O)N[C@@H](CCN)C(=O)N[C@H]5CCNC(=O)[C@H]([C@@H](C)O)NC(=O)[C@H](CCN)NC(=O)[C@H](CCN)NC(=O)[C@H](CC(C)C)NC(=O)[C@@H](CC(C)C)NC(=O)[C@H](CCN)NC5=O)[C@@H](C)O)nn4)c(OC)c3)[C@H](O)[C@H](C)O2)Oc2ccc(cc2Cl)[C@H]1O,broth microdilution,BAA-747,,12 µM
CC[C@H](C)[C@H](NC(=O)[C@H](CCCCN)NC(=O)[C@H](Cc1c[nH]c2ccccc12)NC(=O)[C@H](Cc1c[nH]c2ccccc12)NC(=O)[C@H](CCCCN)NC(=O)[C@H](CCCCN)NC(=O)[C@H](CCCCN)NC(=O)[C@H](Cc1c[nH]c2ccccc12)NC(=O)[C@H](CCCCN)NC(=O)[C@H](CCCCN)NC(=O)[C@H](Cc1c[nH]c2ccccc12)NC(=O)[C@H](CCCCN)NC(=O)[C@H](CCCCN)NC(=O)[C@@H](NC(=O)[C@@H](NC(=O)[C@H](CCCCN)NC(=O)[C@@H](N)CCCNC(=N)N)[C@@H](C)CC)[C@@H](C)CC)C(=O)N[C@@H](Cc1c[nH]c2ccccc12)C(=O)N[C@@H](Cc1c[nH]c2ccccc12)C(=O)N[C@@H](CCCCN)C(N)=O,broth microdilution,18,,1.25 mg/L
C=C1NC(=O)C2C[S+]([O-])CC3NC(=O)C(CSC(C)C(NC(=S)C(Cc4cnc[nH]4)NC(=O)c4csc(C(C)NC(C)=O)n4)C(=O)N[C@H](CC(C)C(=O)NC(=O)CC(C(=O)O)NC(=O)C(C)NC3=O)C(=O)N2)NC(=O)[C@@H]2CCCN2C(=O)[C@@H](CC(C)C)NC1=O (stereo partly drawn),bacterial growth,09987,,> 32 mg/L
CC[C@H](C)[C@H](NC(=O)[C@@H](CCCNC(=N)N)NC(=O)[C@H](CCCNC(=N)N)NC(=O)[C@@H]1CCCN1C(=O)[C@@H]1CCCN1C(=O)[C@H](CCCCNC(=N)N)NC(=O)[C@@H]1CCCN1C(=O)[C@H](CCCNC(=N)N)NC(=O)[C@@H]1CCCN1C(=O)[C@H](CC(C)C)NC(=O)[C@H](Cc1ccc(O)cc1)NC(=O)[C@@H]1CCCN1C(=O)[C@@H]1CCCN1C(=O)[C@H](CCCCN)NC(=O)[C@H](CC(=O)O)NC(=O)[C@@H](N)C(C)C)C(=O)N[C@@H](Cc1ccc(O)cc1)C(=O)N[C@@H](CC(N)=O)C(=O)N[C@H](CCCNC(=N)N)C(N)=O,broth microdilution,DSM 30008,"18 h, 37 °C, 25% MHB2",32 mg/L
CCCCCCCC(=O)N[C@@H](CCN)C(=O)N[C@H](C(=O)N[C@@H](CCN)C(=O)N[C@H]1CCNC(=O)[C@H]([C@@H](C)O)NC(=O)[C@H](CCN)NC(=O)[C@H](CCN)NC(=O)[C@H](CC(C)C)NC(=O)[C@@H](CCc2ccccc2)NC(=O)[C@H](CCN)NC1=O)[C@@H](C)O,broth microdilution,colistin-resistant isolates,,4 to 8 mg/L
C#CCOc1ccc(CN[C@@]2(C)C[C@H](O[C@H]3[C@H](Oc4c5cc6cc4Oc4ccc(cc4Cl)[C@@H](O)[C@@H](NC(=O)[C@@H](CC(C)C)NC)C(=O)N[C@@H](CC(N)=O)C(=O)N[C@H]6C(=O)N[C@H]4C(=O)N[C@H](C(=O)N[C@H](C(=O)N[C@@H](CCCNC(=N)N)C(N)=O)c6cc(O)cc(O)c6-c6cc4ccc6O)[C@H](O)c4ccc(c(Cl)c4)O5)O[C@H](CO)[C@@H](O)[C@@H]3O)O[C@@H](C)[C@H]2O)cc1OC,broth microdilution,BAA-747,,72 µM
CCCCCCCCCCCCCCCCCCn1cc(CN(CCC(=O)NCCN(CCC(=O)NCCN(CCC(=O)NCCN(C)C)CCC(=O)NCCN(C)C)CCC(=O)NCCN(CCC(=O)NCCN(C)C)CCC(=O)NCCN(C)C)CCC(=O)NCCN(CCC(=O)NCCN(CCC(=O)NCCN(C)C)CCC(=O)NCCN(C)C)CCC(=O)NCCN(CCC(=O)NCCN(C)C)CCC(=O)NCCN(C)C)nn1,"microbial growth, broth dilution","MDR, ATCCBAA1791",18 h,6 mg/L
CCn1c(-c2ccc(-c3ccc(F)cc3)cc2)c(-c2ccc(-c3ccc(F)cc3)cc2)n(CC)c1=[Se],broth microdilution,carbapenem-resistant,24 h,> 40 µM
CC[C@H](C)[C@H](NC(=O)[C@@H](CCCNC(=N)N)NC(=O)[C@H](CCCNC(=N)N)NC(=O)[C@@H]1CCCN1C(=O)[C@@H]1CCCN1C(=O)[C@H](Cc1ccccc1)NC(=O)[C@@H]1CCCN1C(=O)[C@H](CCCNC(=N)N)NC(=O)[C@@H]1CCCN1C(=O)[C@H](CC(C)C)NC(=O)[C@H](Cc1ccc(O)cc1)NC(=O)[C@@H]1CCCN1C(=O)[C@@H]1CCCN1C(=O)[C@H](CCCCN)NC(=O)[C@H](CC(=O)O)NC(=O)[C@@H](N)C(C)C)C(=O)N[C@@H](Cc1ccc(O)cc1)C(=O)N[C@@H](CC(N)=O)C(=O)N[C@H](CCCNC(=N)N)C(N)=O,broth microdilution,DSM 30008,"18 h, 37 °C, 25% MHB2",16 mg/L
CN[C@@H]1[C@H](O)[C@H](NC)[C@H]2O[C@]3(O)[C@H](O[C@@H]2[C@H]1O)O[C@H](C)C[C@H]3NC(=O)Cc1cscn1,"microbial growth, broth dilution",ATCC19606,,> 200 mg/L
CCCCCCCC(=O)N[C@@H](CCN)C(=O)N[C@H](C(=O)N[C@@H](CCN)C(=O)N[C@H]1CCNC(=O)[C@H](C)NC(=O)[C@H](CCN)NC(=O)[C@H](CCN)NC(=O)[C@H](CC(C)C)NC(=O)[C@@H](Cc2ccccc2)NC(=O)[C@H](CCN)NC1=O)[C@@H](C)O,broth microdilution,ATCC 19606,"20 h, 37 °C",1 mg/L

# Some of these lines once more:
Compound,test,test system,setting,MIC
CCCCCCCC(=O)N[C@@H](CCN)C(=O)N[C@H](C(=O)N[C@@H](CCN)C(=O)N[C@H]1CCNC(=O)[C@H]([C@@H](C)O)NC(=O)[C@H](CCN)NC(=O)[C@H](CCN)NC(=O)[C@H](Cc2ccccc2)NC(=O)[C@@H](CCC(C)C)NC(=O)[C@H](CCN)NC1=O)[C@@H](C)O,broth microdilution,colistin-resistant isolates,,1 to 2 mg/L
